# Experimental data from different studies.
# Compare with care: the assays were run in different laboratories.
# Medium: plasma
SMILES,system,conditions,quantity,result
CC(C)n1ncc2c(C(=O)NCC3(C)CNC3)cc(C3CC3)nc21,female BALB/c mouse,"intraperitoneal, 50 mg/kg",AUC(0-inf),11100 ng·h/mL
CN(C(=O)c1ccn2ncc(-c3ccc(C(N)=O)cc3)c2c1)c1ccc(C#N)cn1,female C57BL/6 mouse,"oral, 10 mg/kg",AUC,3.2 µM·h
Cn1ncnc1[C@H]1c2n[nH]c(=O)c3cc(F)cc(c23)N[C@@H]1c1ccc(F)cc1,female FVB mouse,"oral, 0.5 mg/kg",AUC,620 ng·h/mL
CC(C)NC(=O)COc1cccc(-c2nc(Nc3ccc4[nH]ncc4c3)c3ccccc3n2)c1,male C57BL/6 mouse,"oral, 100 mg/kg",AUC(0-inf),44800 ng·h/mL
CC(C)c1cc(C(=O)NCCN)c2cnn(C(C)C)c2n1,female BALB/c mouse,"intraperitoneal, 50 mg/kg",AUC(0-inf),7600 ng·h/mL
Cc1ncsc1-c1ccc(CNC(=O)[C@@H]2C[C@@H](O)CN2C(=O)[C@@H](NC(=O)CCCCCCCCCCNC(=O)O[C@H]2C[C@@H](C)C=C3C=C[C@H](C)[C@H](CC[C@@H]4C[C@@H](O)CC(=O)O4)[C@H]32)C(C)(C)C)cc1,C57BL/6 mouse,"oral, 60 mg/kg, single dose",AUC(0-inf),5.4 µM·h
Nc1ccn([C@@H]2O[C@H](CO)[C@@H](O)C2(F)F)c(=O)n1,male BALB/c mouse,"intravenous, 38 µmol/kg",AUC(0-t),55.6 µM·h
CO[C@H]1/C=C/O[C@@]2(C)Oc3c(C)c(O)c4c(c3C2=O)C2=NC3(CCN(CC(C)C)CC3)NC2=C(NC(=O)/C(C)=C\C=C\[C@H](C)[C@H](O)[C@@H](C)[C@@H](O)[C@@H](C)[C@H](OC(C)=O)[C@@H]1C)C4=O,female CD-1 mouse,"oral, 10 mg/kg",AUC,11200 ng·h/mL
COC(=O)c1cc(Cl)ccc1N(C)C(=O)c1ccn2ncc(-c3ccc(C(N)=O)cc3)c2c1,female C57BL/6 mouse,"oral, 10 mg/kg",AUC,0.142 µM·h
O=C(O)CCN1C(=O)/C(=C2/C(=O)Nc3ccc(Cl)cc32)SC1=S,mouse,"intraperitoneal, 25 mg/kg",AUC(0-t),17900 ng·h/mL

# Excerpt of the above:
SMILES,system,conditions,quantity,result
CN(C(=O)c1ccn2ncc(-c3ccc(C(N)=O)cc3)c2c1)c1ccc(C#N)cn1,female C57BL/6 mouse,"oral, 10 mg/kg",AUC,3.2 µM·h
